Measurements collected from several papers.
Parts stem from different laboratories: compare values within a part only. Values joined by “and” are separate records of one study, mostly repeats; a detail may differ. Substitutions count along the parent as printed.
Chain of UniProt P11229 (whole entry, looked up): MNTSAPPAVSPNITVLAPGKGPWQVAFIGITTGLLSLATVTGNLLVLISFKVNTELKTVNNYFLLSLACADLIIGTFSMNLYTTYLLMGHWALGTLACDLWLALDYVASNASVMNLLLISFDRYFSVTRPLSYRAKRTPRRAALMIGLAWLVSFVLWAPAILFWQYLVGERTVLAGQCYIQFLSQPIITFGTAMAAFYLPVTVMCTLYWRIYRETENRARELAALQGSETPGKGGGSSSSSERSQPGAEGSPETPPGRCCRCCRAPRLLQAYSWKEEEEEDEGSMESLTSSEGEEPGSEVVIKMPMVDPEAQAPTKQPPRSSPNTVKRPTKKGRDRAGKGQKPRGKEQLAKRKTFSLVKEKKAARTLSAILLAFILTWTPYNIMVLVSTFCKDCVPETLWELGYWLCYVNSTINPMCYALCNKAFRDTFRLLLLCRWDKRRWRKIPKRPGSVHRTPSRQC

Block 1
Target: CCND2, cyclin fold, Cln2 fusion (human)
Technique: yeast growth competition, sequencing
Matrix: yeast
Notes: strong parent motif
Baseline: not given
Reading: higher = stronger binding
Measurement: normalised enrichment score
Starting sequence: viral docking peptide; YKVKRRLVFGADD; partner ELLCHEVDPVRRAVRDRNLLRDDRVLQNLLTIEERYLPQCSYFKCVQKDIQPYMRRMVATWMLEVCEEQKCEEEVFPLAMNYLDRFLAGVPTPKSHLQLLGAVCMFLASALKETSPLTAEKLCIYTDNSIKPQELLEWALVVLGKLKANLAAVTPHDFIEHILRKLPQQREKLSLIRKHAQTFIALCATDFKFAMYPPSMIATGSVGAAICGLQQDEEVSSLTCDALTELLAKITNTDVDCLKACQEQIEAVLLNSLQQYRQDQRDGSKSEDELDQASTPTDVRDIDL
YWVKRRLVFGADD [K2W]: 0.253
YKVKRRLVFGALD [D12L]: 0.566
YKEKRRLVFGADD [V3E]: 0.0795
YKVQRRLVFGADD [K4Q]: 1.81
YKDKRRLVFGADD [V3D]: 0.15
YKVERRLVFGADD [K4E]: 0.524
YKTKRRLVFGADD [V3T]: 0.972
YKVKRRLFFGADD [V8F]: 1.04

Block 2
Target: HLA class I histocompatibility antigen, A alpha chain, allele A*80:01 (Homo sapiens, UniProt P04439)
Observed: peptide-MHC binding
Molecule type: peptide
Tested at: concentration not given
Measurement: binding
FGALFMWLL: inactive
YQIEGAWRA: inactive
VRDVVMPAL: inactive
VSDFRKEFY: inactive
YYRYPTGESY: inactive
HFIYHKREK: inactive
WLAGFEPSE: inactive
ETMKPAAMV: inactive

Mixed results
CCOc1ccc(Nc2c3c(nc4ccccc24)CCC3)cc1
inhibition (Leishmania donovani; parasite growth; 2 µM, intracellular, amastigote): 24%

CN(C)C(=O)Cn1cc(-c2nc(C3(c4ccc(-c5cnc(N)nc5)cc4)CC3)no2)cn1
inhibition (Muscarinic acetylcholine receptor M1 (CHRM1, Homo sapiens, UniProt P11229); cell-free assay; 10 µM): -14.4%

CCCCCCCCCCCCCCCCOP(=O)([O-])OCC[N+](C)(C)C
inhibition (Leishmania donovani; DD8 resistant line, promastigotes; 16.66 µM): 1% and 2%

Repeated from above (block 1):
YKTKRRLVFGADD [V3T]: 0.972
YKVKRRLFFGADD [V8F]: 1.04
